Experimental data gathered from unrelated publications.
Every numbered part comes from another study and shows a few of its results, in no order. Values joined by “and” are separate records of one study, mostly repeats; a detail may differ.
Chain of UniProt P45985 (whole entry, looked up): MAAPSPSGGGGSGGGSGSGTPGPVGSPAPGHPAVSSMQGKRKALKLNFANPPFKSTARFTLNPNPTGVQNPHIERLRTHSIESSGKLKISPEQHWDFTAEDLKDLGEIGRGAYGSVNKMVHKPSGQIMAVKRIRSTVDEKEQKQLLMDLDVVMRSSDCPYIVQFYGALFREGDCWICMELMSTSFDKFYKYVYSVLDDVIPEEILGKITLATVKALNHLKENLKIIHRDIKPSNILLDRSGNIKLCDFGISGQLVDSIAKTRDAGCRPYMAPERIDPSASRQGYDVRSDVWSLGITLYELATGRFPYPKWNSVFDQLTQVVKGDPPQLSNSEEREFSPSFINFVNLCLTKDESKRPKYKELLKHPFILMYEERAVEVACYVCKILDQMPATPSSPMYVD
Chain of UniProt Q9P0L2 (whole entry, looked up): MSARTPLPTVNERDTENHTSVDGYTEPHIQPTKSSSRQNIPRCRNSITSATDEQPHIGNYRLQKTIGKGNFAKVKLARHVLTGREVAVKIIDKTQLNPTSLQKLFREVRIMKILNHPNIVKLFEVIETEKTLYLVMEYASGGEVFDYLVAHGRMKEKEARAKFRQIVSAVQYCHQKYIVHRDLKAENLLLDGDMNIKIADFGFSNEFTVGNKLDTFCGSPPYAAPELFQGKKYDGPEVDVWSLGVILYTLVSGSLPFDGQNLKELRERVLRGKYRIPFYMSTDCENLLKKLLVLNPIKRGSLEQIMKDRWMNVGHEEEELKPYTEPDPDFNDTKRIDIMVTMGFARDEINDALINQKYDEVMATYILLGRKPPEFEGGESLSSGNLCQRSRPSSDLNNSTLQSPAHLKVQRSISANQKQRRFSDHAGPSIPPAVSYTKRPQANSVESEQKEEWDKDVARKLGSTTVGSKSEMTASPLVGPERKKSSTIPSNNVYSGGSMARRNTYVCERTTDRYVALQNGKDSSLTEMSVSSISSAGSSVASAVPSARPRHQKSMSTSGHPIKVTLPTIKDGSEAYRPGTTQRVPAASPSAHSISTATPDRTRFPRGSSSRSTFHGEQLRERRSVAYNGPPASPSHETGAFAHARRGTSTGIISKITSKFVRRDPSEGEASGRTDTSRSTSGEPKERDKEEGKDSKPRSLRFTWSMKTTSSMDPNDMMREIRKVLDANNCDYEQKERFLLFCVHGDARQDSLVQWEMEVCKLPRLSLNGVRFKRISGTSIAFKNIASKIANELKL
Chain of UniProt Q99683 (whole entry, looked up): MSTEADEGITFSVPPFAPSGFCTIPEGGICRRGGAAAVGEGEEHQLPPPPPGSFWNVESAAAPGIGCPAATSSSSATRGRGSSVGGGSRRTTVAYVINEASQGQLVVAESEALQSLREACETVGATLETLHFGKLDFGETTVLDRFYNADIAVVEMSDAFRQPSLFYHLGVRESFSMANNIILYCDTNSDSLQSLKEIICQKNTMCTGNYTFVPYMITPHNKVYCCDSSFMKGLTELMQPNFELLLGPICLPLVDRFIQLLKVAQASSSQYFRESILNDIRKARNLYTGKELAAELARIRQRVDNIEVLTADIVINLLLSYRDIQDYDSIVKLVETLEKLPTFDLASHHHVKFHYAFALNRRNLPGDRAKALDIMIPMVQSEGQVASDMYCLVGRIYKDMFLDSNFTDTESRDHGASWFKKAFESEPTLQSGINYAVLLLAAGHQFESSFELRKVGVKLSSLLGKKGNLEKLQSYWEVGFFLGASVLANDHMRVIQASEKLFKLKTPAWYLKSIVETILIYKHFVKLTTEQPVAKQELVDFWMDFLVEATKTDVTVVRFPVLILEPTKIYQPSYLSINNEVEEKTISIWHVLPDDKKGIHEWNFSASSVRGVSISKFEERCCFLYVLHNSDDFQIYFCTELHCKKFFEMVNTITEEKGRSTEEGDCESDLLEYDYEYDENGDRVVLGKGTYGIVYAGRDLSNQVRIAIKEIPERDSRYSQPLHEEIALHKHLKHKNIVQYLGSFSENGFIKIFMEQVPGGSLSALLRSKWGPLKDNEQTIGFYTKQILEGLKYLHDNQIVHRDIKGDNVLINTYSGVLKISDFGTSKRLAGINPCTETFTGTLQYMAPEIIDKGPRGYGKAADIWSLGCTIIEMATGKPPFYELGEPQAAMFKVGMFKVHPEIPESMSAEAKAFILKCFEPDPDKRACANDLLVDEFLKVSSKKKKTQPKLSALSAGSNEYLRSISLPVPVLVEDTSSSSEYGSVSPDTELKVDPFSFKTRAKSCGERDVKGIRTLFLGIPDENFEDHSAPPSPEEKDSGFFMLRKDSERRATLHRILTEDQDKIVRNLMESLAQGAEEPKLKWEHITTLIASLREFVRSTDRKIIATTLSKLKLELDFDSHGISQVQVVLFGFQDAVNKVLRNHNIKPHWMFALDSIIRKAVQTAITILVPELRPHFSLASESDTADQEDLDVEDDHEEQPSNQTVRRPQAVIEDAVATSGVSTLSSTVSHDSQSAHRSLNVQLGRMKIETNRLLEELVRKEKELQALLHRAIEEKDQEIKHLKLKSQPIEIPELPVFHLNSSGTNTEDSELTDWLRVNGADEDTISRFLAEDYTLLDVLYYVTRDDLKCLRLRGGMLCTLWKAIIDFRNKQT
Chain of UniProt P25098 (whole entry, looked up): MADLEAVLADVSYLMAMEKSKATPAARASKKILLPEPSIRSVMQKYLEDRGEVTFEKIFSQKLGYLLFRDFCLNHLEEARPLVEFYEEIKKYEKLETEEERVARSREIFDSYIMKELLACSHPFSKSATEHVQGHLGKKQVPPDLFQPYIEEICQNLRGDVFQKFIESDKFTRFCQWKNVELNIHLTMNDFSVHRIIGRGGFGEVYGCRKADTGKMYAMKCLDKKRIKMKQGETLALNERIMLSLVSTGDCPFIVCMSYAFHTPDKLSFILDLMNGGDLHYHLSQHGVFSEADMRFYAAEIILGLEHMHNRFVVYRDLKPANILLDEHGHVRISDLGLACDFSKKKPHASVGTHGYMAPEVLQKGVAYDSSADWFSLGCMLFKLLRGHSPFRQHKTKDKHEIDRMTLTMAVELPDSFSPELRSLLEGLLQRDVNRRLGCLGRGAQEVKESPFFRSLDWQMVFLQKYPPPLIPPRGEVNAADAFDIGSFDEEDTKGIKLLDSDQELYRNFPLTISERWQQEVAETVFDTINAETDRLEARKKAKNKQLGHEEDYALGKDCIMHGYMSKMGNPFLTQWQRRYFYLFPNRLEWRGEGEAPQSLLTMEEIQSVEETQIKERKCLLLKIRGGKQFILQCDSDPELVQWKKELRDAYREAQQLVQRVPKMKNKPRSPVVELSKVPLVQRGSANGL
Chain of UniProt P10721 (whole entry, looked up): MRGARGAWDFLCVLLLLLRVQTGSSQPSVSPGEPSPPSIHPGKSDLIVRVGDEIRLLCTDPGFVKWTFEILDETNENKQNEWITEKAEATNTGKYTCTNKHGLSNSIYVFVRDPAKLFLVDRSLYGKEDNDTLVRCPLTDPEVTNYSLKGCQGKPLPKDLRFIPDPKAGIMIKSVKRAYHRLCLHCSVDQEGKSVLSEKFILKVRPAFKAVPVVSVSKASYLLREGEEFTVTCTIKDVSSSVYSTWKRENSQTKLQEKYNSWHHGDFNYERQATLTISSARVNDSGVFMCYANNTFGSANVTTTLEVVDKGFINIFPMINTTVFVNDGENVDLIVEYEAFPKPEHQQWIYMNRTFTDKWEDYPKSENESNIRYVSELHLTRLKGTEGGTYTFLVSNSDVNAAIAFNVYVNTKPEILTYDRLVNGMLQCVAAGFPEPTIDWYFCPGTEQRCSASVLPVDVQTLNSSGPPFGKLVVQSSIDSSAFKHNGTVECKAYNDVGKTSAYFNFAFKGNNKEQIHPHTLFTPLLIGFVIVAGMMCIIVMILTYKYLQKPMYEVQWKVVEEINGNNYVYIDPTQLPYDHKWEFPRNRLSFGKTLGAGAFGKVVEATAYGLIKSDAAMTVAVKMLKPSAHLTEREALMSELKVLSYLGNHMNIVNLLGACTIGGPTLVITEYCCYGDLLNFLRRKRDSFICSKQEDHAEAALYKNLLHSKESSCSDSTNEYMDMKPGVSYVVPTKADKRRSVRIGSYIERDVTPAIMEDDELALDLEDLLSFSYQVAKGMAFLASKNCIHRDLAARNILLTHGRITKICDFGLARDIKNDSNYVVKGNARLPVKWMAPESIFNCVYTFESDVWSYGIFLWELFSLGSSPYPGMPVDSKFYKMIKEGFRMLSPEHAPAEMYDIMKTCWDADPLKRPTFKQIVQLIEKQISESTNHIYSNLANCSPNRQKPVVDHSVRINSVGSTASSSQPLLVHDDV
Chain of UniProt P35626 (whole entry, looked up): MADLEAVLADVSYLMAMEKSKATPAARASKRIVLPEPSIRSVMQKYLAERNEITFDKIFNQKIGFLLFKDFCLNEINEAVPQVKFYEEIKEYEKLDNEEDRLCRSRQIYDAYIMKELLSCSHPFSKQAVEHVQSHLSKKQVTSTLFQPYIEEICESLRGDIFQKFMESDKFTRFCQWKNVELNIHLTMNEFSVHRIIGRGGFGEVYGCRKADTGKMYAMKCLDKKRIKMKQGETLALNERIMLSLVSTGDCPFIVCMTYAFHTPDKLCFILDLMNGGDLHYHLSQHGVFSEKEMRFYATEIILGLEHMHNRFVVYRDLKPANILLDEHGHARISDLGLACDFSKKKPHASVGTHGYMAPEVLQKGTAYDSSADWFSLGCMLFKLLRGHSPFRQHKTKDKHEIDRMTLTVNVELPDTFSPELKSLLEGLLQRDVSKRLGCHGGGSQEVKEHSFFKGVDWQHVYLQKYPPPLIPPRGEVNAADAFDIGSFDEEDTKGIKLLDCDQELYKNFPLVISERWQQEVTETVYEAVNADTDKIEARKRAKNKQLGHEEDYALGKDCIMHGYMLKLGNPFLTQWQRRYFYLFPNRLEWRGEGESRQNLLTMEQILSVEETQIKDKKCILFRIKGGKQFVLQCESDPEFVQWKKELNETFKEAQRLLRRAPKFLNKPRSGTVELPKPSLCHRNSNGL

Sample 1
SMILES: C[C@@H]1CN(c2ccc(-c3cc(C(=O)NCCOCCOCCOCCOCCOCCOCCNC(=O)/C=C/c4[nH]cc(C(=O)N[C@@H](CC(N)=O)c5ccc(F)c(Cl)c5)c4-c4ccc(Cl)cc4F)ccc3F)cc2NC(=O)c2ccc(F)cc2C(F)(F)F)C[C@H](C)N1C
Method: ATPlite
cell line | system | conditions | scale | viability
MV4-11 expressing HiBiT-WDR5 | RPMI with 10% FBS | 13.3 nM, 24 h | – | 89.6% and 88.6% and 107%
MV4-11 expressing HiBiT-WDR5 | RPMI with 10% FBS | 10000 nM, 24 h | – | 101% and 86.1% and 105%
MV4-11 | – | 4.64 µM, 5 days | relative to: DMSO | 37% and 39% and 30.8%
MV4-11 | – | 0.0215 µM, 5 days | relative to: DMSO | 77.5% and 75.1% and 96.4% and 84.8%
MV4-11 expressing HiBiT-WDR5 | RPMI with 10% FBS | 5.15 nM, 24 h | – | 102% and 86.1% and 93.5%
MV4-11 expressing HiBiT-WDR5 | RPMI with 10% FBS | 227 nM, 24 h | – | 107% and 127% and 120%
MV4-11 expressing HiBiT-WDR5 | RPMI with 10% FBS | 34.2 nM, 24 h | – | 99.4% and 107% and 79.4%

Sample 2
SMILES: CCCOc1ccc([C@H]2[C@H](C(=O)O)[C@@H](c3ccc4c(c3)OCO4)CN2CC(=O)Nc2c(CC)cccc2CC)cc1
Concentration: 1 µM
target | assay | remaining binding [%]
CSNK1G1 (Homo sapiens, UniProt Q9HCP0) | cell-free assay, competition with immobilised ligand | 100
Tyrosine-protein kinase ABL1, phosphorylated (ABL1, Homo sapiens, UniProt P00519, M351T) | cell-free assay, competition with immobilised ligand | 69
PRKCD (Homo sapiens, UniProt Q05655) | cell-free assay, competition with immobilised ligand | 100
CAMK1D (Homo sapiens, UniProt Q8IU85) | cell-free assay, competition with immobilised ligand | 75
MAP2K4 (Homo sapiens, UniProt P45985) | cell-free assay, competition with immobilised ligand | 80
PIM3 (Homo sapiens, UniProt Q86V86) | cell-free assay, competition with immobilised ligand | 88
GRK3 (Homo sapiens, UniProt P35626) | cell-free assay, competition with immobilised ligand | 73
PKMYT1 (Homo sapiens, UniProt Q99640) | cell-free assay, competition with immobilised ligand | 74
MARK1 (Homo sapiens, UniProt Q9P0L2) | cell-free assay, competition with immobilised ligand | 100
TSSK1B (Homo sapiens, UniProt Q9BXA7) | cell-free assay, competition with immobilised ligand | 92
MAP3K5 (Homo sapiens, UniProt Q99683) | cell-free assay, competition with immobilised ligand | 91
TIE1 (Homo sapiens, UniProt P35590) | cell-free assay, competition with immobilised ligand | 94
GRK2 (Homo sapiens, UniProt P25098) | cell-free assay, competition with immobilised ligand | 51
RET (Homo sapiens, UniProt P07949) | cell-free assay, competition with immobilised ligand | 86
KIT (Homo sapiens, UniProt P10721) | cell-free assay, competition with immobilised ligand | 85
MAP4K3 (Homo sapiens, UniProt Q8IVH8) | cell-free assay, competition with immobilised ligand | 85
TRPM6 (Homo sapiens, UniProt Q9BX84) | cell-free assay, competition with immobilised ligand | 94
CDC42BPG (Homo sapiens, UniProt Q6DT37) | competition binding | 79
ROS1 (Homo sapiens, UniProt P08922) | cell-free assay, competition with immobilised ligand | 98
Ribosomal protein S6 kinase alpha-4, C-terminal kinase domain (RPS6KA4, Homo sapiens, UniProt O75676) | cell-free assay, competition with immobilised ligand | 68
EPHA1 (Homo sapiens, UniProt P21709) | cell-free assay, competition with immobilised ligand | 86
FES (Homo sapiens, UniProt P07332) | cell-free assay, competition with immobilised ligand | 96

Sample 3
Cell line: A-375
Concentration: 100 µM
Time: 36 h
SMILES | viability [%]
Oc1ccc(/C=C/c2cc(O)cc(O)c2)cc1 | 35.8
Cc1c(CNCS(=O)(=O)O)c(=O)n(-c2ccccc2)n1C | 112
Nc1nc(=O)n([C@@H]2CS[C@H](CO)O2)cc1F | 87.2
CO[C@H]1C[C@H](O[C@H]2[C@H](C)O[C@@H](O[C@@H]3/C(C)=C/C[C@@H]4C[C@@H](C[C@]5(C=C[C@H](C)[C@@H](C6CCCCC6)O5)O4)OC(=O)[C@@H]4C=C(C)[C@@H](O)[C@H]5OC/C(=C\C=C\[C@@H]3C)[C@]54O)C[C@@H]2OC)O[C@@H](C)[C@@H]1O | 22.7
O=C(O)[C@@H](S)[C@@H](S)C(=O)O | 111
CC(c1cc2ccccc2s1)N(O)C(N)=O (stereo not drawn) | 107
O=C(O)Cc1cc(I)c(Oc2ccc(O)c(I)c2)c(I)c1 | 55.4
C=C1c2cccc(O)c2C(=O)C2=C(O)[C@]3(O)C(=O)C(C(N)=O)=C(O)[C@@H](N(C)C)[C@@H]3[C@@H](O)[C@H]12 | 129

Sample 4
SMILES: CC(C)(C(=O)O)[C@H](NC(=O)Cc1cccc(I)c1)c1ccc2oc(=O)[nH]c2c1
Method: Incucyte 3D growth
Concentration: 30 µM
Reading: higher = more growth
cell line | conditions | spheroid area
MEL-JUSO | 438.52 h | 2.48e+07 a.u. and 7.45e+07 a.u. and 3.06e+07 a.u. and 3.11e+07 a.u. and 2.92e+07 a.u. and 5.17e+07 a.u.
NCI-H1437 | 168 h | 3.53e+07 a.u. and 4.83e+07 a.u. and 3.51e+07 a.u. and 5.04e+07 a.u. and 3.07e+07 a.u. and 4.01e+07 a.u.
MEL-JUSO | 294.52 h | 2.56e+07 a.u. and 2.39e+07 a.u. and 2.61e+07 a.u. and 2.18e+07 a.u. and 4.05e+07 a.u. and 2.27e+07 a.u.
MEL-JUSO | 168.52 h | 1.69e+07 a.u. and 2.03e+07 a.u. and 1.71e+07 a.u. and 1.86e+07 a.u. and 1.81e+07 a.u. and 2.15e+07 a.u.
MEL-JUSO | 0 h | 2.15e+07 a.u. and 2.13e+07 a.u. and 1.62e+07 a.u. and 2.17e+07 a.u. and 1.68e+07 a.u.
NCI-H1437 | 138 h | 3.28e+07 a.u. and 2.9e+07 a.u. and 3.32e+07 a.u. and 4.05e+07 a.u. and 3.23e+07 a.u. and 3.57e+07 a.u.
MEL-JUSO | 390.52 h | 4.05e+07 a.u. and 3.66e+07 a.u. and 4.25e+07 a.u. and 4.27e+07 a.u. and 3.08e+07 a.u. and 6.83e+07 a.u.
NCI-H358 | 198 h | 6.71e+06 a.u. and 7.08e+06 a.u. and 8.16e+06 a.u. and 1.12e+07 a.u. and 7.81e+06 a.u. and 8.66e+06 a.u.

For quick reference, copied from above (sample 4):
cell line | conditions | spheroid area
NCI-H358 | 198 h | 6.71e+06 a.u. and 7.08e+06 a.u. and 8.16e+06 a.u. and 1.12e+07 a.u. and 7.81e+06 a.u. and 8.66e+06 a.u.
MEL-JUSO | 438.52 h | 2.48e+07 a.u. and 7.45e+07 a.u. and 3.06e+07 a.u. and 3.11e+07 a.u. and 2.92e+07 a.u. and 5.17e+07 a.u.
MEL-JUSO | 168.52 h | 1.69e+07 a.u. and 2.03e+07 a.u. and 1.71e+07 a.u. and 1.86e+07 a.u. and 1.81e+07 a.u. and 2.15e+07 a.u.
NCI-H1437 | 168 h | 3.53e+07 a.u. and 4.83e+07 a.u. and 3.51e+07 a.u. and 5.04e+07 a.u. and 3.07e+07 a.u. and 4.01e+07 a.u.
MEL-JUSO | 0 h | 2.15e+07 a.u. and 2.13e+07 a.u. and 1.62e+07 a.u. and 2.17e+07 a.u. and 1.68e+07 a.u.
